Results of several laboratories.
Each line is one published result; not all experiments were run side by side. ± marks the error that the study gave.
Technique: steady-state kinetics
B1: Ma-WS/DGAT (Marinobacter nauticus); chain MTPLNPTDQLFLWLEKRQQPMHVGGLQLFSFPEGAPDDYVAQLADQLRQKTEVTAPFNQRLSYRLGQPVWVEDEHLDLEHHFRFEALPTPGRIRELLSFVSAEHSHLMDRERPMWEVHLIEGLKDRQFALYTKVHHSLVDGVSAMRMATRMLSENPDEHGMPPIWDLPCLSRDRGESDGHSLWRSVTHLLGLSGRQLGTIPTVAKELLKTINQARKDPAYDSIFHAPRCMLNQKITGSRRFAAQSWCLKRIRAVCEAYGTTVNDVVTAMCAAALRTYLMNQDALPEKPLVAFVPVSLRRDDSSGGNQVGVILASLHTDVQEAGERLLKIHHGMEEAKQRYRHMSPEEIVNYTALTLAPAAFHLLTGLAPKWQTFNVVISNVPGPSRPLYWNGAKLEGMYPVSIDMDRLALNMTLTSYNDQVEFGLIGCRRTLPSLQRMLDYLEQGLAELELNAGL
B2: oxdC (Bacillus subtilis, UniProt O34714); chain MKKQNDIPQPIRGDKGATVKIPRNIERDRQNPDMLVPPETDHGTVSNMKFSFSDTHNRLEKGGYAREVTVRELPISENLASVNMRLKPGAIRELHWHKEAEWAYMIYGSARVTIVDEKGRSFIDDVGEGDLWYFPSGLPHSIQALEEGAEFLLVFDDGSFSENSTFQLTDWLAHTPKEVIAANFGVTKEEISNLPGKEKYIFENQLPGSLKDDIVEGPNGEVPYPFTYRLLEQEPIESEGGKVYIADSTNFKVSKTIASALVTVEPGAMRELHWHPNTHEWQYYISGKARMTVFASDGHARTFNYQAGDVGYVPFAMGHYVENIGDEPLVFLEIFKDDHYADVSLNQWLAMLPETFVQAHLDLGKDFTDVLSKEKHPVVKKKCSK
B3: trypsin (Saccharopolyspora erythraea, UniProt Q54137); chain IVGGEDANVQDHPFTVALVTPDGQQFCGGTLAAPNKVVTAAHCTVGSQPADINVVSGRTVMSSNEGTVSKVTNVWVHPEYQDAAKGFDVSVLTLEAPVKEAPIELAKADDAGYAPDTAATILGWGNTSEGGQQADHLQKATVPVNSDDTCKQAYGEYTPDAMVCAGVPEGGVDTCQGDSGGPMVVNNKLIGVTSWGEGCARPGKPGVYARVGAYYDVLMEQINAGAVSAR
B4: cbh1 (Trichoderma reesei, UniProt P62694); chain QSACTLQSETHPPLTWQKCSSGGTCTQQTGSVVIDANWRWTHATNSSTNCYDGNTWSSTLCPDNETCAKNCCLDGAAYASTYGVTTSGNSLSIGFVTQSAQKNVGARLYLMASDTTYQEFTLLGNEFSFDVDVSQLPCGLNGALYFVSMDADGGVSKYPTNTAGAKYGTGYCDSQCPRDLKFINGQANVEGWEPSSNNANTGIGGHGSCCSEMDIWEANSISEALTPHPCTTVGQEICEGDGCGGTYSDNRYGGTCDPDGCDWNPYRLGNTSFYGPGSSFTLDTTKKLTVVTQFETSGAINRYYVQNGVTFQQPNAELGSYSGNELNDDYCTAEEAEFGGSSFSDKGGLTQFKKATSGGMVLVMSLWDDYYANMLWLDSTYPTNETSSTPGAVRGSCSTSSGVPAQVESQSPNAKVTFSNIKFGPIGSTGNPSGGNPPGGNRGTTTTRRPATTTGSSPGPTQSHYGQCGGIGYSGPTVCASGTTCQVLNPYYSQCL
B5: enzyme A178R/D177A/G159A/M179S/P184R (Levilactobacillus brevis, UniProt Q03Q85); chain MKVTVVGCTHAGTFAIKQILAEHPDAEVTVYERNDVISFLSCGIALYLGGKVADPQGLFYSSPEELQKLGANVQMNHNVLAIDPDQKTVTVEDLTNHAQTTESYDKLVMTSGSWPIVPKIPGIDSDRVKLCKNWAHAQALIEDAKEAKRITVIGAGYIAAELAEAYSTTGHDVTLIARSARVMRKYFDADFTDVIEQDYRDHGVQLALGETVESFTDSATGLTIKTDKNSYETDLAILCIGFRPNTDLLKGKVDMAPNGAIITDDYMRSSNPDIFAAGDSAAVHYNPTHQNAYIPLATNAVRQGILVGKNLVKPTVKYMGTQSSSGLALYDRTIVSTGLTLAAAKQQGLNAEQVIVEDNYRPEFMPSTEPVLMSLVFDPDTHRILGGALMSKYDVSQSANTLSVCIQNENTIDDLAMVDMLFQPNFDRPFNYLNILAQAAQAKVAQSVNA
B6: protein Y93G (Thermus thermophilus, UniProt Q5SKR5); chain MSAPKPFVIGIAGGTASGKTTLAQALARTLGERVALLPMDHYYKDLGHLPLEERLRVNYDHPDAFDLALYLEHAQALLRGLPVEMPVYDFRAGTRSPRRTPVRPAPVVILEGILVLYPKELRDLMDLKVFVDADADERFIRRLKRDVLERGRSLEGVVAQYLEQVKPMHLHFVEPTKRYADVIVPRGGQNPVALEMLAAKALARLARMGAA
B7: Msh2/Msh3 (Saccharomyces cerevisiae); chain 1 MSSTRPELKFSDVSEERNFYKKYTGLPKKPLKTIRLVDKGDYYTVIGSDAIFVADSVYHTQSVLKNCQLDPVTAKNFHEPTKYVTVSLQVLATLLKLCLLDLGYKVEIYDKGWKLIKSASPGNIEQVNELMNMNIDSSIIIASLKVQWNSQDGNCIIGVAFIDTTAYKVGMLDIVDNEVYSNLESFLIQLGVKECLVQDLTSNSNSNAEMQKVINVIDRCGCVVTLLKNSEFSEKDVELDLTKLLGDDLALSLPQKYSKLSMGACNALIGYLQLLSEQDQVGKYELVEHKLKEFMKLDASAIKALNLFPQGPQNPFGSNNLAVSGFTSAGNSGKVTSLFQLLNHCKTNAGVRLLNEWLKQPLTNIDEINKRHDLVDYLIDQIELRQMLTSEYLPMIPDIRRLTKKLNKRGNLEDVLKIYQFSKRIPEIVQVFTSFLEDDSPTEPVNELVRSVWLAPLSHHVEPLSKFEEMVETTVDLDAYEENNEFMIKVEFNEELGKIRSKLDTLRDEIHSIHLDSAEDLGFDPDKKLKLENHHLHGWCMRLTRNDAKELRKHKKYIELSTVKAGIFFSTKQLKSIANETNILQKEYDKQQSALVREIINITLTYTPVFEKLSLVLAHLDVIASFAHTSSYAPIPYIRPKLHPMDSERRTHLISSRHPVLEMQDDISFISNDVTLESGKGDFLIITGPNMGGKSTYIRQVGVISLMAQIGCFVPCEEAEIAIVDAILCRVGAGDSQLKGVSTFMVEILETASILKNASKNSLIIVDELGRGTSTYDGFGLAWAIAEHIASKIGCFALFATHFHELTELSEKLPNVKNMHVVAHIEKNLKEQKHDDEDITLLYKVEPGISDQSFGIHVAEVVQFPEKIVKMAKRKANELDDLKTNNEDLKKAKLSLQEVNEGNIRLKALLKEWIRKVKEEGLHDPSKITEEASQHKIQELLRAIANEPEKENDNYLKYIKALLL; chain 2 MAGQPTISRFFKKAVKSELTHKQEQEVAVGNGAGSESICLDTDEEDNLSSVASTTVTNDSFPLKGSVSSKNSKNSEKTSGTSTTFNDIDFAKKLDRIMKRRSDENVEAEDDEEEGEEDFVKKKARKSPTAKLTPLDKQVKDLKMHHRDKVLVIRVGYKYKCFAEDAVTVSRILHIKLVPGKLTIDESNPQDCNHRQFAYCSFPDVRLNVHLERLVHHNLKVAVVEQAETSAIKKHDPGASKSSVFERKISNVFTKATFGVNSTFVLRGKRILGDTNSIWALSRDVHQGKVAKYSLISVNLNNGEVVYDEFEEPNLADEKLQIRIKYLQPIEVLVNTDDLPLHVAKFFKDISCPLIHKQEYDLEDHVVQAIKVMNEKIQLSPSLIRLVSKLYSHMVEYNNEQVMLIPSIYSPFASKIHMLLDPNSLQSLDIFTHDGGKGSLFWLLDHTRTSFGLRMLREWILKPLVDVHQIEERLDAIECITSEINNSIFFESLNQMLNHTPDLLRTLNRIMYGTTSRKEVYFYLKQITSFVDHFKMHQSYLSEHFKSSDGRIGKQSPLLFRLFSELNELLSTTQLPHFLTMINVSAVMEKNSDKQVMDFFNLNNYDCSEGIIKIQRESESVRSQLKEELAEIRKYLKRPYLNFRDEVDYLIEVKNSQIKDLPDDWIKVNNTKMVSRFTTPRTQKLTQKLEYYKDLLIRESELQYKEFLNKITAEYTELRKITLNLAQYDCILSLAATSCNVNYVRPTFVNGQQAIIAKNARNPIIESLDVHYVPNDIMMSPENGKINIITGPNMGGKSSYIRQVALLTIMAQIGSFVPAEEIRLSIFENVLTRIGAHDDIINGDSTFKVEMLDILHILKNCNKRSLLLLDEVGRGTGTHDGIAISYALIKYFSELSDCPLILFTTHFPMLGEIKSPLIRNYHMDYVEEQKTGEDWMSVIFLYKLKKGLTYNSYGMNVAKLARLDKDIINRAFSISEELRKESINEDALKLFSSLKRILKSDNITATDKLAKLLSLDIH
B8: Nudt8 (Mus musculus, UniProt Q9CR24); chain MLPDGLSAEDEQRCRQLLARTTARLRSRPAAAAVLVPLCLVRGVPALLYTLRSSRLVGRHKGEVSFPGGKCDPDDQDVIHTALRETQEELGLEVPKEHVWGVLQPVYDREKATIVPVLANVGPLDLQSLRPNLEEVDEVFEMSLAHLLQTQNQGYTHFCQGGHFSYTLPVFLHGPHRVWGLTAVITELTLKLLAPGFYQPSLAVPELPRG
B9: ASRGL1 (Homo sapiens, UniProt Q7L266); chain 1 MNPIVVVHGGGAGPISKDRKERVHQGMVRAATVGYGILREGGSAVDAVEGAVVALEDDPEFNAGCGSVLNTNGEVEMDASIMDGKDLSAGAVSAVQCIANPIKLARLVMEKTPHCFLTDQGAAQFAAAMGVPEIPGEKLVTERNKKRLEKEKHEKGAQKTDCQKNLG; chain 2 TVGAVALDCKGNVAYATSTGGIVNKMVGRVGDSPCLGAGGYADNDIGAVSTTGHGESILKVNLARLTLFHIEQGKTVEEAADLSLGYMKSRVKGLGGLIVVSKTGDWVAKWTSTSMPWAAAKDGKLHFGIDPDDTTITDLP
B10: sacB S173G (Priestia megaterium, UniProt D5DC07); chain KGNDSKDFNNSYGISHITRDNMVKIPQQQNSDQFKVPAFDESTIKNIASAKGKNASGNTIDLDVWDSWPLQNADGTVATYHGYQIVFALAGDPKDSNDTSVYLFYKKAGDKSIDSWKNAGRVFKDSDKFVPNDPHLKNQTQEWGGSGTLTKDGKVRLFYTDYSGKQYGKQTLTTAQVNMSQPNDNTLKVDGVEDYKSIFDGDGKIYQTVQQFIDEGGYDTGDNHTLRDPHYIEDNGHKYLVFEANTGTEDGYQGEDSLYNRAYYGGNNPFFQSEKKKLLEGSNKEKASLANGALGIIELNDDYTLKKVMKPLITSNTVTDEIERANIFKKDGKWYLFTDSRGSKMTIDGIGQDDVYMLGYVSNTLTGKYKPLNDTGLVLHMDLDPNDKTFTYSHFAVPQTKGDNVVITSYMTNRGFYEDNHSTFAPSFLVNIDGSKTSVVKDRVLEQGQLTVDED
Sequence of UniProt Q8C0L6 (whole entry, looked up): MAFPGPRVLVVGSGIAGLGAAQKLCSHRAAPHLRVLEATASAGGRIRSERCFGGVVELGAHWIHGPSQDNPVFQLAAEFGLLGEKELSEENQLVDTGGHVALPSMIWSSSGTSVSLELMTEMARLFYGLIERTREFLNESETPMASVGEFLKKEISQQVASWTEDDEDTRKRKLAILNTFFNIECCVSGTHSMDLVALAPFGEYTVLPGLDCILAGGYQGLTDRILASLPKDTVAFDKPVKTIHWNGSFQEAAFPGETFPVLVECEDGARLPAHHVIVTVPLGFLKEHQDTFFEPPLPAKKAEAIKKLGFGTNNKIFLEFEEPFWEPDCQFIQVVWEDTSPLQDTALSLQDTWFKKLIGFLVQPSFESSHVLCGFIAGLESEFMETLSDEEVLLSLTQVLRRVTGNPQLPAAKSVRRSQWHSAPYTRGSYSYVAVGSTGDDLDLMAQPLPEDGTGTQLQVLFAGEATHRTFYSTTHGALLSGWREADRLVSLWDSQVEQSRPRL

B1 (Ma-WS/DGAT)  kcat/Km (CCCCCC(=O)SCCNC(=O)CCNC(=O)[C@H](O)C(C)(C)COP(=O)(O)OP(=O)(O)OC[C@H]1O[C@@H](n2cnc3c(N)ncnc32)[C@H](O)[C@@H]1OP(=O)(O)O; pH 7.5, 25 °C, NaCl 300 mM, lower limit, not saturable, apparent, added: 1-hexanol 4 mM): 1860 ± 70 M⁻¹ s⁻¹
B2 (oxdC)  kcat/Km (O=C(O)C(=O)O; pH 4.2, 25 °C): 1190 M⁻¹ s⁻¹
B3 (trypsin)  kcat/Km (N=C(N)NCCC[C@H](NC(=O)c1ccccc1)C(=O)Nc1ccc([N+](=O)[O-])cc1; pH 8, 25 °C): 5730 ± 520 M⁻¹ s⁻¹
B4 (cbh1)  kcat/Km ([H][C@@]1(O[C@H]2[C@H](O)[C@@H](O)[C@H](Oc3ccc([N+](=O)[O-])cc3)O[C@@H]2CO)O[C@H](CO)[C@H](O)[C@H](O)[C@H]1O; pH 5, 25 °C, apparent): 147 M⁻¹ s⁻¹
B5  kcat/Km (NC(=O)C1=CN([C@@H]2O[C@H](COP(=O)(O)OP(=O)(O)OC[C@H]3O[C@@H](n4cnc5c(N)ncnc54)[C@H](OP(=O)(O)O)[C@@H]3O)[C@@H](O)[C@H]2O)C=CC1; pH 7.5, 37 °C, per site): 1.2e+07 ± 3e+06 M⁻¹ s⁻¹
B6 (protein Y93G)  kcat/Km (Nc1ccn([C@@H]2O[C@H](CO)[C@@H](O)[C@H]2O)c(=O)n1; pH 7.2, 25 °C, KCl 100 mM, added: ATP 100–200 µM): 4600 M⁻¹ s⁻¹
B7 (Msh2/Msh3)  kcat/Km (Nc1ncnc2c1ncn2[C@@H]1O[C@H](COP(=O)(O)OP(=O)(O)OP(=O)(O)O)[C@@H](O)[C@H]1O; pH 7.5, 30 °C, no DNA, added: magnesium acetate 2 mM): 417 M⁻¹ s⁻¹
B8 (Nudt8)  kcat/Km (CC(C)(COP(=O)(O)OP(=O)(O)OC[C@H]1O[C@@H](n2cnc3c(N)ncnc32)[C@H](O)[C@@H]1OP(=O)(O)O)[C@@H](O)C(=O)NCCC(=O)NCCS; pH 8.5, added: 2 mM Mn2+): 24000 M⁻¹ s⁻¹
Paox (Mus musculus, UniProt Q8C0L6)  kcat/Km (CC(=O)NCCCNCCCCNCCCN; pH 10, 30 °C): 230000 ± 78000 M⁻¹ s⁻¹
B9 (ASRGL1)  kcat/Km (COC(=O)[C@H](Cc1ccccc1)NC(=O)C[C@H](N)C(=O)O; pH 7.4, 37 °C, NaCl 100 mM): 2000 ± 300 M⁻¹ s⁻¹
B10 (sacB S173G)  kcat/Km (OC[C@H]1O[C@@](CO)(O[C@H]2O[C@H](CO)[C@@H](O)[C@H](O)[C@H]2O)[C@@H](O)[C@@H]1O; pH 6.6): 310 M⁻¹ s⁻¹
